Results from different studies.
Numbers after ± are the reported error. Where no end group is shown, it is not given here.
CHRM1: Muscarinic acetylcholine receptor M1 (CHRM1, Homo sapiens, UniProt P11229)
UniProt P11229, sequence (whole entry, looked up): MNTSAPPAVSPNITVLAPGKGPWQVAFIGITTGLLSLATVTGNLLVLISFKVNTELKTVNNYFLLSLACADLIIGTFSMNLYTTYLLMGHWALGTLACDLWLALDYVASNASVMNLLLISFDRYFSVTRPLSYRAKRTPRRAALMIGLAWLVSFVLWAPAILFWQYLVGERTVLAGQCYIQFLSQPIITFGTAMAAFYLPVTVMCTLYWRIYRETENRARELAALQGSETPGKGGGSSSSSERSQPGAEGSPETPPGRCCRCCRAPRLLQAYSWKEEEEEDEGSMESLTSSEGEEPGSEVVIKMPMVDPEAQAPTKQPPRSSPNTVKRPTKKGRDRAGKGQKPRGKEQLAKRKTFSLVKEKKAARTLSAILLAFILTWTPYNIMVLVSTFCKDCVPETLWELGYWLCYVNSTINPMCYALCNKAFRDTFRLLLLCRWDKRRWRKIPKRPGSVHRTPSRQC

O=C(Cn1cc(COc2ccccc2-c2nc(Cc3ccccc3)no2)nn1)NNC(=S)Nc1ccccc1 — mRNA level (Caco-2; qPCR, measured: EGFR; IC50, 24 h; relative to: untreated cancer cells): 0.423 ± 0.005 fold
Fc1cc(F)cc(-c2cc3ccccc3[nH]2)c1 — viability (RAW264.7; sulforhodamine B; 50 µM, 20 h; relative to: vehicle): 86.5 ± 9.4%
TDVDHAFLRF-NH2 (C-amide) — inhibition (Drosophila melanogaster; heart rate; adult heart; 40 nL injected, 1 µM, 10 min; relative to: DMS): 100%
COc1ccc2cc(-c3cc4ccccc4[nH]3)ccc2c1 — inhibition (RAW264.7; NO release, inhibitor, Griess; 50 µM, 20 h, LPS-stimulated): 13.9%
O=C1c2c(O)cc(O)cc2O[C@H](c2cc(O)c(O)c(O)c2)[C@H]1O — EC50 (GABAA receptor, rat; tonic current enhancement, positive allosteric modulator, whole-cell patch clamp; hippocampal neurons, cultured; together with: ethanol 60 mM for 30 min, recorded 24 h after exposure): ~200 nM
Polymyxin B — IL-6 release (human whole blood; 125 ng/mL, 4 h, 37 °C, together with: E. coli LPS 0.5 ng/mL; relative to: LPS without compound): 22 ± 12%
COc1cccc2c1C(=O)c1c(O)c3c(c(O)c1C2=O)C[C@@](O)(C(=O)CO)C[C@@H]3O[C@H]1C[C@H](N)[C@H](O)[C@H](C)O1 — mRNA level (A549; qPCR, measured: TP53; concentration not given, 24 h; relative to: untreated): 8.3 ± 0.02 fold
CN(C)S(=O)(=O)c1ccc(COc2ccccc2-c2cc(=O)n(C3CCCCC3O)cn2)cc1 (centres unmarked) — change in baseline activity (CHRM1; allosteric agonist, IP1 accumulation; CHO-M1 cells; 10 µM, unit not given; relative to: maximum ACh response): 20.9 ± 2.2
Cc1ccc(NC(=O)c2ccc(CN3CCN(C)CC3)cc2)cc1Nc1nccc(-c2cncc(-c3oncc3C)c2)n1 — MDS-UPDRS part II score (mild-to-moderate Parkinson's disease patients; oral, 50 mg once daily, day 7, practically defined OFF state; direction not given): 8.7 ± 6.9
Clc1ccc2cc(-c3ccccc3)[nH]c2c1 — inhibition (RAW264.7; NO release, inhibitor, Griess; 50 µM, 20 h, LPS-stimulated): 36.3%
CO/N=C1\C[C@]2(C[C@@H]3C[C@@H](C/C=C(\C)C[C@@H](C)/C=C/C=C4\CO[C@@H]5[C@H](O)C(C)=C[C@@H](C(=O)O3)[C@]45O)O2)O[C@H](/C(C)=C/C(C)C)[C@H]1C — faecal egg count reduction (Haemonchus contortus; multidrug resistant, sheep; subcutaneous, 0.2 mg/kg, day 2 post-treatment, together with: closantel 5 mg/kg): 97%
CC(C)C[C@H](NC(=O)[C@H](CO)NC(=O)[C@H](CCCNC(=N)N)NC(=O)[C@H](CC(=O)O)NC(=O)[C@H](CCC(=O)O)NC(=O)[C@H](C)NC(=O)[C@@H]1CCCN1C(=O)[C@H](C)NC(=O)[C@H](CCC(=O)O)NC(=O)[C@@H]1CCCN1C(=O)[C@@H]1CCCN1)C(N)=O — DOPAC level (HPLC-EC; rat F344, normal, substantia nigra; intranasal, 300 µg 5 days per week, 3 weeks): 269 ± 29 ng/g
COc1cc(OC)cc(-c2cc3ccccc3[nH]2)c1 — viability (RAW264.7; sulforhodamine B; 50 µM, 20 h; relative to: vehicle): 110 ± 2.4%
NC(=O)Cn1cc(COc2ccccc2-c2nc(-c3ccccc3)no2)nn1 — mRNA level (Caco-2; qPCR, measured: PI3K; IC50, 24 h; relative to: untreated cancer cells): 0.45 ± 0.001 fold
c1ccc(Cn2c(-c3ccccc3)cc3ccccc32)cc1 — viability (RAW264.7; sulforhodamine B; 50 µM, 20 h; relative to: vehicle): 84.6 ± 2%
NNC(=O)Cn1cc(COc2ccccc2-c2nc(-c3ccccc3)no2)nn1 — mRNA level (Caco-2; qPCR, measured: EGFR; IC50, 24 h; relative to: untreated cancer cells): 0.35 ± 0.03 fold
CCCn1cc(-c2ccc(COc3ccccc3-c3cc(=O)n(C4CCCCC4O)cn3)cc2)cn1 (centres unmarked) — change in baseline activity (CHRM1; allosteric agonist, IP1 accumulation; CHO-M1 cells; 10 µM, unit not given; relative to: maximum ACh response): 72.7 ± 3

Repeated from above:
O=C1c2c(O)cc(O)cc2O[C@H](c2cc(O)c(O)c(O)c2)[C@H]1O — EC50 (GABAA receptor, rat; tonic current enhancement, positive allosteric modulator, whole-cell patch clamp; hippocampal neurons, cultured; together with: ethanol 60 mM for 30 min, recorded 24 h after exposure): ~200 nM
CC(C)C[C@H](NC(=O)[C@H](CO)NC(=O)[C@H](CCCNC(=N)N)NC(=O)[C@H](CC(=O)O)NC(=O)[C@H](CCC(=O)O)NC(=O)[C@H](C)NC(=O)[C@@H]1CCCN1C(=O)[C@H](C)NC(=O)[C@H](CCC(=O)O)NC(=O)[C@@H]1CCCN1C(=O)[C@@H]1CCCN1)C(N)=O — DOPAC level (HPLC-EC; rat F344, normal, substantia nigra; intranasal, 300 µg 5 days per week, 3 weeks): 269 ± 29 ng/g
